Experimental data collected from several papers.
Every numbered part comes from another study and shows a few of its results, in no order.

Block 1
Target: Histone acetyltransferase KAT6A, winged helix 2, GST fusion (KAT6A, Homo sapiens, UniProt Q92794, residues 85-181)
Technique: protein binding microarray
Molecule type: double-stranded DNA, one strand shown
Sample: in vitro
Tested at: not given
Notes: 8-mer, flanks averaged, mean of 2 arrays, mostly near background
Relative to: not given
Direction: higher = stronger binding
Endpoint: E-score
Target sequence (chain): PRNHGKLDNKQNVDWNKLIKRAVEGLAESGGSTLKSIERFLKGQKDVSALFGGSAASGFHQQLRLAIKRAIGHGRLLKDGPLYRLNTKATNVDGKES
ACAGGTAT: -0.135
TATAAGCA: -0.0029
ATTCTACG: -0.0143
AGTCTGAT: -0.0808
CGTGCGAC: 0.103
ATCCAGAC: 0.0687
GTACTCGA: -0.156
TCCTGCCA: -0.0124

Block 2
Target: Interferon regulatory factor 5, full length, phosphomimetic (IRF5, Homo sapiens, UniProt Q13568-2, residues 1-514, K96S/S451D/S453D/S456D/S462D)
Technique: protein-binding microarray
Molecule type: double-stranded DNA, one strand shown
Sample: in vitro
Tested at: 250 nM
Notes: 60-bp whole probe
Together with: salmon DNA 0.4 mg/ml
Relative to: random background probes
Direction: higher = stronger binding
Endpoint: log fluorescence
All sequences stand within: GCCTAGCAC … GTCTTGATTCGCTTGACGCTGCTG
CTCCTCTCTGGGTCAAAGGTGTGCTAG: -0.44 z-score
GACGAACGGAGTTTCGAGACGTGCTAG: 3.72 z-score
TATTTTTTCTGAACCATTTTGTGCTAG: 1.24 z-score
TTAGAGTTCGGGACTGGATTAGTGCTA: -0.272 z-score
TCATTTTTGCTTTCTTTACTGTGCTAG: 3.01 z-score
TTGGCTTATTCCAGATTTTTGTGCTAG: 0.134 z-score
TTAGGTATCCTTTTCCCTTAGTGCTAG: 0.719 z-score
TTAGCTTTCCTTTCCCTTTAGTGCTAG: 2.33 z-score
TCACTTTTTGCACTCTCACTGTGCTAG: 1.2 z-score
CTCGGGACAGGCACTCTACGGTGCTAG: -0.652 z-score
GACGAACTGGGGACTGGAGAAGTGCTA: -0.352 z-score
GACGGTATCGGTATCGGGCCGTGCTAG: 6.22 z-score

Block 3
Target: Prothrombin, mature alpha-thrombin (F2, Homo sapiens, UniProt P00734)
Technique: aptamer microarray, sandwich
Molecule type: DNA with 2'F-ANA
Sample: in vitro
Tested at: 200 nM
Notes: whole 15-mer aptamer, many near background
Together with: Cy3 exosite-II aptamer, 400 nM
Direction: higher = stronger binding
Endpoint: mean fluorescence intensity
Strand: GGTTGGTGTGGTTGG
2'F-ANA at 2 5 7 8 9 10 12 14 15: 59.1 a.u.
2'F-ANA at 1 2 3 4 5 6 7 11 12 14: 51.9 a.u.
2'F-ANA at 3 4 6 7 8 9 10 11 12: 278 a.u.
2'F-ANA at 5 7 9 10 11 13: 48 a.u.
2'F-ANA at 3 4 7 10 12 15: 480 a.u.
2'F-ANA at 1 2 5 7 10 11 12: 48.3 a.u.
2'F-ANA at 5 7 8 11 13 15: 92.6 a.u.
2'F-ANA at 1 4 6 7 8 10 11 13: 51.7 a.u.
2'F-ANA at 4 5 6 7 9 12 13 14 15: 51 a.u.

Other studies, line by line
PhoQ, residues 284 288 289 292 302 303 AAQSYM
fold induction (PhoP, residues 12 14 15 18 19 NHFRA (Escherichia coli, UniProt P23836); Sort-seq, measured: YFP reporter; E. coli; PhoQ-PhoP variant library, together with: 10 µM Mg2+; relative to: high Mg2+ state, higher = stronger signaling): 3.32

Some of these lines once more (other studies, line by line):
PhoQ, residues 284 288 289 292 302 303 AAQSYM
fold induction (PhoP, residues 12 14 15 18 19 NHFRA (Escherichia coli, UniProt P23836); Sort-seq, measured: YFP reporter; E. coli; PhoQ-PhoP variant library, together with: 10 µM Mg2+; relative to: high Mg2+ state, higher = stronger signaling): 3.32
